Experimental data of several laboratories.
Parts stem from different laboratories: compare values within a part only.

Study 1
Target: PABPC1L2, full length, GST fusion (mouse, UniProt A0ABA7IW68)
Method: RNAcompete
Molecule type: RNA
Matrix: in vitro
Tested at: 20 nM
Notes: 7-mer, probes averaged, single round
Reference: mean of 7-mers
Reading: higher = stronger binding
Target sequence (chain): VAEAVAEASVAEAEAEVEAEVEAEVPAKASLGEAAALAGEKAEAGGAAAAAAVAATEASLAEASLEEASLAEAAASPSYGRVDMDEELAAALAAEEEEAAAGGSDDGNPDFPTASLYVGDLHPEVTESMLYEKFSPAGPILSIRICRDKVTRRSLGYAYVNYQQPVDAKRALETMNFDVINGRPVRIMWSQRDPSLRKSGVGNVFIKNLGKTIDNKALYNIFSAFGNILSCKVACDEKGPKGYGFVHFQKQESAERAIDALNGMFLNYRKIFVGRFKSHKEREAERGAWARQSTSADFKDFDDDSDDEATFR
| Oligonucleotide | 7-mer Z-score |
| --- | --- |
| GCCUAGC | -0.271 |
| AGCUCAA | -0.0573 |
| CUGUUGG | -0.427 |
| GUCCGCG | -0.362 |
| AAUGCAG | 0.314 |
| CUGAGUG | -0.0718 |
| UCGUCGA | -0.465 |
| CUGCGUA | -0.197 |

Study 2
Target: Eukaryotic initiation factor 4A-I (EIF4A1, Homo sapiens, UniProt P60842, residues 1-406, full length assumed)
Sequence of UniProt P60842 (whole entry, looked up): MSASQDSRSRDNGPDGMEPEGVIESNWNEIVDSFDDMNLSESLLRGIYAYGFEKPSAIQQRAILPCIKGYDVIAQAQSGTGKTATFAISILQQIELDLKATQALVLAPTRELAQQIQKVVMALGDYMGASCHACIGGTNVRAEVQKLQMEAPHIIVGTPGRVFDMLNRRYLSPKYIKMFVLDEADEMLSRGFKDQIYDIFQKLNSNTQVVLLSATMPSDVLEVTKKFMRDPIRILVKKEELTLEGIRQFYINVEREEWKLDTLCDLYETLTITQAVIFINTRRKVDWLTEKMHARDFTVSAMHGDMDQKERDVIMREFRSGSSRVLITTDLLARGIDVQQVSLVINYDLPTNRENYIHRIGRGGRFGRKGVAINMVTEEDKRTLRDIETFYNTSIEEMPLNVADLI
Method: RNA Bind-n-Seq
Molecule type: RNA
Matrix: in vitro
Tested at: 90 pmol
Notes: 4-mer, random 30-nt RNA, single round
Added: 3 µM DMDA-PatA, 2 mM ADP, 2 mM phosphate
Reference: input library
Reading: higher = stronger binding
| Oligonucleotide | 4-mer enrichment [fold] |
| --- | --- |
| UGCU | 0.604 |
| AAAG | 1.32 |
| UUGU | 1.15 |
| CUGU | 0.719 |
| GUAA | 1.13 |
| CGAG | 1.23 |
| GGUU | 1.03 |
| ACUG | 0.705 |

Study 3
Target: TAR DNA-binding protein 43, full length, His tag (TARDBP, Homo sapiens, UniProt Q13148, residues 1-414)
Method: RNA Bind-n-Seq
Molecule type: RNA
Matrix: in vitro
Tested at: 20 nM
Notes: 6-mer, flanks averaged, single round
Added: 150 mM LiCl
Reference: input library
Reading: higher = stronger binding
| Oligonucleotide | 6-mer enrichment (R) |
| --- | --- |
| UAGGGC | 0.981 |
| AAUUCA | 0.897 |
| AACGCA | 0.821 |
| AUAGGG | 1.07 |
| GCUACA | 0.861 |
| GAACGC | 0.86 |
| AACACU | 0.811 |
| UGCCGA | 0.916 |

Further values, each from its own experiment
| Structure (SMILES) | system | setting | measurement | value |
| --- | --- | --- | --- | --- |
| CCOC(=O)c1cc2n(c1)CCCc1c(N)n[nH]c1-2 | human, microsomes or S9 | 2 µM, 0.5 h | remaining compound | 68.8% |

Repeated from above (study 1):
| Oligonucleotide | 7-mer Z-score |
| --- | --- |
| GUCCGCG | -0.362 |
| AAUGCAG | 0.314 |
| CUGAGUG | -0.0718 |
| UCGUCGA | -0.465 |
